{"data": "Measurements from different studies", "note": "A part holds a random share of what one study measured. Positions count from the first letter of the parent shown."}
{"data": "Set 1", "target": "CCNA2, cyclin fold, Cln2 fusion (human)", "technique": "yeast growth competition, sequencing", "sample": "yeast", "setting": "weak parent motif", "reference": "not given", "reading": "higher = stronger binding", "starting sequence": "MASTL docking peptide (human); PMIAKNLMCELDE"}
{"Substitution": "PMIAKNLDCELDE [M8D]", "normalised enrichment score": -0.204}
{"Substitution": "PMIAKNLRCELDE [M8R]", "normalised enrichment score": 0.213}
{"Substitution": "PMIAKKLMCELDE [N6K]", "normalised enrichment score": 0.054}
{"Substitution": "PMIAKNLMNELDE [C9N]", "normalised enrichment score": -0.0805}
{"Substitution": "PMIAKNLKCELDE [M8K]", "normalised enrichment score": 0.133}
{"Substitution": "PMRAKNLMCELDE [I3R]", "normalised enrichment score": 0.195}
{"Substitution": "PMIAKNLMCELLE [D12L]", "normalised enrichment score": 0.137}
{"Substitution": "PMNAKNLMCELDE [I3N]", "normalised enrichment score": 0.0415}
{"Substitution": "PMIAKNLMGELDE [C9G]", "normalised enrichment score": 0.0282}
{"Substitution": "PMFAKNLMCELDE [I3F]", "normalised enrichment score": -0.343}
{"Substitution": "PMIAKNLMCEWDE [L11W]", "normalised enrichment score": 0.661}
{"data": "Set 2", "target": "Interferon regulatory factor 5, full length, phosphomimetic (IRF5, Homo sapiens, UniProt Q13568-2, residues 1-514, S451D/S453D/S456D/S462D)", "technique": "protein-binding microarray", "form": "double-stranded DNA, one strand shown", "sample": "in vitro", "tested at": "940 nM top", "setting": "60-bp whole probe", "with": "salmon DNA 0.4 mg/ml", "reference": "random background probes", "reading": "higher = stronger binding", "shared flanks, not repeated": "GCCTAGCAC … GTCTTGATTCGCTTGACGCTGCTG"}
{"Sequence": "GACGAACCGGGGACTGGAGACGTGCTA", "fitted relative affinity": "-0.126 z-score"}
{"Sequence": "TTACGTTTCCTTTTCCTTTAGTGCTAG", "fitted relative affinity": "2.59 z-score"}
{"Sequence": "TGAGGACTGCTTTTCCTTTAGTGCTAG", "fitted relative affinity": "-0.414 z-score"}
{"Sequence": "TTAGATATCGGGTTTCGATCAGTGCTA", "fitted relative affinity": "5.16 z-score"}
{"Sequence": "GACGGACTGGGTAACGGGACGTGCTAG", "fitted relative affinity": "-0.51 z-score"}
{"Sequence": "TTTACTAGGAGTTTTCAGTCCGTGCTA", "fitted relative affinity": "-0.149 z-score"}
{"Sequence": "TTAGGTTCCCGTTTCGGTTAGTGCTAG", "fitted relative affinity": "3.86 z-score"}
{"Sequence": "GACGATTTCAGATCCGAGACGTGCTAG", "fitted relative affinity": "-0.0663 z-score"}
{"Sequence": "GACGGTTTCGGACTGGGGACGTGCTAG", "fitted relative affinity": "5.88 z-score"}
{"Sequence": "GACGGTTTCGGTTTGGGGACGTGCTAG", "fitted relative affinity": "13.5 z-score"}
{"Sequence": "ATAGATATCAGACTGGATTAGTGCTAG", "fitted relative affinity": "-0.222 z-score"}
{"Sequence": "CGCTCTGTGCTCTTTGGGCTGTGCTAG", "fitted relative affinity": "-0.473 z-score"}
{"data": "Set 3", "target": "ABI1, truncated, D143A, DHFR fusion (Arabidopsis thaliana)", "technique": "DHFR PCA, deep sequencing", "sample": "yeast", "setting": "methotrexate growth selection, single substitutions", "with": "(+)-ABA 0 µM", "reference": "wild-type fitted maximum", "reading": "higher = stronger binding", "starting sequence": "PYL1, truncated, DHFR fusion (Arabidopsis thaliana); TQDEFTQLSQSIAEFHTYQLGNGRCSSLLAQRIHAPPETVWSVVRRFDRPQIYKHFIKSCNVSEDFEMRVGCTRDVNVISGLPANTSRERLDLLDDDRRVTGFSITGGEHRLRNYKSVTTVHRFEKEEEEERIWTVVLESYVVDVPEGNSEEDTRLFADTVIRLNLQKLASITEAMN; partner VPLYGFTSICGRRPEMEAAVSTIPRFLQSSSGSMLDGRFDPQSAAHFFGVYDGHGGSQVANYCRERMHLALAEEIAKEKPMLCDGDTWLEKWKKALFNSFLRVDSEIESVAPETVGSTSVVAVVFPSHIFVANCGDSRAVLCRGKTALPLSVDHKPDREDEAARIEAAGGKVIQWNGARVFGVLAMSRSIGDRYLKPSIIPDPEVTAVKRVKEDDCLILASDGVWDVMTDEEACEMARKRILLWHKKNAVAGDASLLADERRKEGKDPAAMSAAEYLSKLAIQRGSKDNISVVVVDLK"}
{"Substitution": "S171K", "relative binding score [%]": 28.9}
{"Substitution": "S140Y", "relative binding score [%]": -0.843}
{"Substitution": "R46G", "relative binding score [%]": 0.0748}
{"Substitution": "S11D", "relative binding score [%]": 22.5}
{"Substitution": "S9T", "relative binding score [%]": 27.1}
{"Substitution": "V142R", "relative binding score [%]": -2.02}
{"Substitution": "F157Q", "relative binding score [%]": 3.72}
{"Substitution": "C60S", "relative binding score [%]": -0.187}
{"Substitution": "P36E", "relative binding score [%]": 8.68}
{"data": "Mixed results"}
{"Molecule": "PhoQ, residues 284 288 289 292 302 303 SLKLQV", "target": "PhoP, residues 12 14 15 18 19 NQGLL (Escherichia coli, UniProt P23836)", "assay": "Sort-seq, measured: YFP reporter", "system": "E. coli", "setting": "PhoQ-PhoP variant library, with: 10 µM Mg2+", "scale": "reference: high Mg2+ state, higher = stronger signaling", "measurement": "fold induction", "value": 5.93}
{"note": "Repeated from above (set 3):"}
{"Substitution": "S11D", "relative binding score [%]": 22.5}
{"Substitution": "V142R", "relative binding score [%]": -2.02}
{"Substitution": "S171K", "relative binding score [%]": 28.9}
{"Substitution": "F157Q", "relative binding score [%]": 3.72}
{"Substitution": "R46G", "relative binding score [%]": 0.0748}
{"Substitution": "S140Y", "relative binding score [%]": -0.843}
